Published values pooled from the literature.
Lines come from different studies, so protocols differ. ± marks the error that the study gave.
rep main protease: Replicase polyprotein 1ab, main protease (rep, Severe acute respiratory syndrome coronavirus 2, UniProt P0DTD1)

Compound | target or system | assay | system | setting | measurement | value
CN(C)C(=N)N=C(N)N | Severe acute respiratory syndrome coronavirus 2 | viral replication | Vero C1008 | 48 h | IC50 | 10.5 µM
CCC(CC)COC(=O)[C@H](C)N[P@](=O)(OC[C@H]1O[C@@](C#N)(c2ccc3c(N)ncnn23)[C@H](O)[C@@H]1O)Oc1ccccc1 | Severe acute respiratory syndrome coronavirus 2 | cytopathic effect | Vero C1008 | 72 h | IC50 | 0.51 µM
Clc1ccc2nc(-c3ccccc3)c(-c3ccccc3)nc2c1 | Severe acute respiratory syndrome coronavirus 2 | viral entry, inhibitor | – | pseudovirus | IC50 | 21.3 µM
C[C@]12C=CC(=O)C=C1CC[C@@H]1[C@@H]2[C@@H](O)C[C@@]2(C)[C@H]1C[C@H]1O[C@@H](C3CCCCC3)O[C@]12C(=O)CO | Severe acute respiratory syndrome coronavirus 2 | viral replication, inhibitor | Calu-3 | – | IC50 | 13.4 µM
CCOc1nc(N)ncc1-c1cn([C@@H]2O[C@](F)(COC(=O)C(C)C)[C@@H](OC(=O)C(C)C)[C@H]2OC(=O)C(C)C)cn1 | Severe acute respiratory syndrome coronavirus 2 | viral replication, inhibitor | A549-ACE2 | 24 h | IC50 | 17.9 µM
Cn1cnc(Cn2c(=O)[nH]/c(=N\c3cc4cn(C)nc4cc3Cl)n(Cc3cc(F)c(F)cc3F)c2=O)n1 | – | – | human, severe renal impairment, plasma | oral, 375 mg single dose | Cmax | 17200 ng/mL
CC(C)C(=O)OC[C@@]1(F)O[C@@H](n2cnc(-c3cnc(=O)[nH]c3)c2)[C@H](OC(=O)C(C)C)[C@@H]1OC(=O)C(C)C | Severe acute respiratory syndrome coronavirus 2 | viral replication, inhibitor | A549-ACE2 | 24 h | IC50 | > 100 µM
CC(C)C(=O)OCC(=O)[C@@]12O[C@H](C3CCCCC3)O[C@@H]1C[C@H]1[C@@H]3CCC4=CC(=O)C=C[C@]4(C)[C@H]3[C@@H](O)C[C@@]12C | Severe acute respiratory syndrome coronavirus 2 | viral replication, inhibitor | Calu-3 | – | IC50 | 4.5 µM
CC[C@H](C)[C@H](NC(=O)[C@H](CC(C)C)NC(=O)[C@H](Cc1c[nH]c2ccccc12)NC(=O)[C@H](CCC(N)=O)NC(=O)[C@@H](NC(=O)[C@H](Cc1ccccc1)NC(=O)[C@H](C)NC(=O)[C@H](CCCCNC(=O)COCCOCCNC(=O)COCCOCCNC(=O)CC[C@H](NC(=O)CCCCCCCCCCCCCCCCCCC(=O)O)C(=O)O)NC(=O)[C@H](CCC(N)=O)NC(=O)[C@H](C)NC(=O)[C@@H](NC(=O)[C@H](CCCCN)NC(=O)[C@H](CC(=O)O)NC(=O)[C@H](CC(C)C)NC(=O)C(C)(C)NC(=O)[C@@H](NC(=O)[C@H](CO)NC(=O)[C@H](Cc1ccc(O)cc1)NC(=O)[C@H](CC(=O)O)NC(=O)[C@H](CO)NC(=O)[C@@H](NC(=O)[C@H](Cc1ccccc1)NC(=O)[C@@H](NC(=O)CNC(=O)[C@H](CCC(=O)O)NC(=O)C(C)(C)NC(=O)[C@@H](N)Cc1ccc(O)cc1)[C@@H](C)O)[C@@H](C)O)[C@@H](C)CC)[C@@H](C)CC)C(C)C)C(=O)N[C@@H](C)C(=O)NCC(=O)NCC(=O)N1CCC[C@H]1C(=O)N[C@@H](CO)C(=O)N[C@@H](CO)C(=O)NCC(=O)N[C@@H](C)C(=O)N1CCC[C@H]1C(=O)N1CCC[C@H]1C(=O)N1CCC[C@H]1C(=O)N[C@@H](CO)C(N)=O | – | – | healthy subjects, serum | 4.5 mg, baseline, multiple ascending dose | serum ALT | 27 ± 10.8 U/L
Nc1ncnc2c([C@@H]3N[C@H](CO)[C@@H](O)[C@H]3O)c[nH]c12 | Marburg virus | viral replication, antibody staining | HeLa, Musoke | 100 µM, 24 h | infected cells | 2.8%
O=C(O)C1=CC(=C(c2ccc(O)c(C(=O)O)c2)c2ccc(O)c(C(=O)O)c2)C=CC1=O | Severe acute respiratory syndrome coronavirus 2 | viral replication, inhibitor | Vero C1008 | 24 h | IC50 | 50 µM
CCC(CC)COC(=O)[C@H](C)N[P@](=O)(OC[C@H]1O[C@@](C#N)(c2ccc3c(N)ncnn23)[C@H](O)[C@@H]1O)Oc1ccccc1 | Severe acute respiratory syndrome coronavirus 2 | viral replication | Vero | – | IC50 | 0.085 µM
Cn1cnc(Cn2c(=O)[nH]/c(=N\c3cc4cn(C)nc4cc3Cl)n(Cc3cc(F)c(F)cc3F)c2=O)n1 | Severe acute respiratory syndrome coronavirus 2 | viral replication | Vero C1008 | – | IC50 | 0.172 µM
CC1=CCC(=C(C)C)CC1 | Severe acute respiratory syndrome coronavirus 2 | cytopathic effect | Vero C1008 | 72 h | IC50 | ~2.31 µM
N[C@@H](CC(=O)N1CCn2c(nnc2C(F)(F)F)C1)Cc1cc(F)c(F)cc1F | Severe acute respiratory syndrome coronavirus 2 | viral replication | Vero C1008 | 48 h | IC50 | 1.46 µM
COc1ncncc1-c1cn([C@@H]2O[C@](F)(CO)[C@@H](O)[C@H]2O)cn1 | Severe acute respiratory syndrome coronavirus 2 | viral replication, inhibitor | A549-ACE2 | 24 h | IC50 | > 100 µM
O=C(NN1C(=O)[C@@H]2[C@@H]3C=C[C@@H]([C@H]4C[C@@H]34)[C@@H]2C1=O)c1ccc(C(F)(F)F)cc1 | rep main protease | reporter gene (Gaussia luciferase), inhibitor | – | 20 µM | inhibition | 1.26%
CC(C)C(=O)Nc1ncncc1-c1cn([C@@H]2O[C@](F)(COC(=O)C(C)C)[C@@H](OC(=O)C(C)C)[C@H]2OC(=O)C(C)C)cn1 | Severe acute respiratory syndrome coronavirus 2 | viral replication, inhibitor | A549-ACE2 | 24 h | IC50 | 25 µM
CCC[C@H](NC(=O)[C@@H]1[C@H]2CCC[C@H]2CN1C(=O)[C@@H](NC(=O)[C@@H](NC(=O)c1cnccn1)C1CCCCC1)C(C)(C)C)C(=O)C(=O)NC1CC1 | Severe acute respiratory syndrome coronavirus 2 | viral replication, inhibitor | HEK-293T | – | IC50 | 20.5 µM
COc1ncc(-c2cn([C@@H]3O[C@](F)(COC(=O)C(C)C)[C@@H](OC(=O)C(C)C)[C@H]3OC(=O)C(C)C)cn2)cn1 | Severe acute respiratory syndrome coronavirus 2 | viral replication, inhibitor | A549-ACE2 | 24 h | IC50 | > 100 µM
Cc1cccc(NC(=O)C[S+]([O-])c2nc(-c3ccccc3)cn2-c2ccc(Cl)cc2)c1C (racemic) | Severe acute respiratory syndrome coronavirus 2 | viral entry | – | – | IC50 | 14.7 µM
CC(C)C(=O)OC[C@@]1(F)O[C@@H](n2cnc(-c3cnc(N)[nH]c3=O)c2)[C@H](OC(=O)C(C)C)[C@@H]1OC(=O)C(C)C | Severe acute respiratory syndrome coronavirus 2 | viral replication, inhibitor | A549-ACE2 | 24 h | IC50 | > 100 µM
CCOC(=O)[C@H](Cc1ccccc1)NC(=O)c1cc(Cl)c(OCCN2CCN(C)CC2)c(Cl)c1O.Cl.Cl | rep main protease | viral replication, mKate2 reporter | SARS-CoV-2 | 20 µM | inhibition | -0.61%
Cc1cnc(C(=O)N[C@H]2CCCCC/C=C\[C@@H]3C[C@@]3(C(=O)NS(=O)(=O)C3CC3)NC(=O)[C@@H]3C[C@@H](Oc4nc5ccccc5c5ccccc45)CN3C2=O)cn1 | Severe acute respiratory syndrome coronavirus 2 | viral replication, inhibitor | Vero C1008 | 48 h | IC50 | 6 µM

For quick reference, copied from above:
Compound | target or system | assay | system | setting | measurement | value
CN(C)C(=N)N=C(N)N | Severe acute respiratory syndrome coronavirus 2 | viral replication | Vero C1008 | 48 h | IC50 | 10.5 µM
Cn1cnc(Cn2c(=O)[nH]/c(=N\c3cc4cn(C)nc4cc3Cl)n(Cc3cc(F)c(F)cc3F)c2=O)n1 | – | – | human, severe renal impairment, plasma | oral, 375 mg single dose | Cmax | 17200 ng/mL
CCOC(=O)[C@H](Cc1ccccc1)NC(=O)c1cc(Cl)c(OCCN2CCN(C)CC2)c(Cl)c1O.Cl.Cl | rep main protease | viral replication, mKate2 reporter | SARS-CoV-2 | 20 µM | inhibition | -0.61%
